Published values collected from several papers.
Lines come from different studies, so protocols differ.
Organism: Staphylococcus aureus

| Structure (SMILES) | assay | system | conditions | MIC |
| --- | --- | --- | --- | --- |
| CN[C@H](CC(C)C)C(=O)N[C@H]1C(=O)N[C@@H](CC(N)=O)C(=O)N[C@H]2C(=O)N[C@H]3C(=O)N[C@H](C(=O)N[C@H](C(=O)O)c4cc(O)cc(O)c4-c4cc3ccc4O)[C@H](O)c3ccc(c(Cl)c3)Oc3cc2cc(c3O[C@@H]2O[C@H](CO)[C@@H](O)[C@H](O)[C@H]2O[C@H]2C[C@](C)(N)[C@H](O)[C@H](C)O2)Oc2ccc(cc2Cl)[C@H]1O | – | clinical isolate | 18 to 20 h, 37 °C | < 1 µM |
| CC[C@H](C)[C@H](NC(=O)[C@@H](CCC(=O)O)NC(=O)[C@H](CC(C)C)NC(=O)c1cccc(-c2ccccn2)n1)C(=O)N[C@H]1CCCCNC(=O)[C@H](CC(N)=O)NC(=O)[C@@H](CC(=O)O)NC(=O)[C@H](Cc2c[nH]cn2)NC(=O)[C@@H](Cc2ccccc2)NC(=O)[C@H]([C@@H](C)CC)NC(=O)[C@@H](CCCN)NC1=O | – | ATCC 29213 methicillin-susceptible | 18 h, 37 °C, 0.3 mM ZnSO4 LB | > 64 µg/mL |
| CC[C@H]1OC(=O)[C@H](C)[C@@H](OC(=O)Cc2cccc([N+](=O)[O-])c2)[C@H](C)[C@@H](O[C@@H]2O[C@H](C)C[C@H](N(C)C)[C@H]2O)[C@](C)(OC)C[C@@H](C)C(=O)[C@H](C)[C@@H](O)[C@]1(C)O | – | BAA-976 msr(A) | – | < 1 µg/mL |
| CC[C@H](C)[C@H](NC(=O)[C@@H](CCCNC(=N)N)NC(=O)[C@H](CCCNC(=N)N)NC(=O)[C@H](Cc1ccc(O)cc1)NC(=O)[C@H](Cc1c[nH]c2ccccc12)NC(=O)[C@H](CCCNC(=N)N)NC(=O)[C@@H]1CCCN1C(=O)[C@H](CCCNC(=N)N)NC(=O)[C@@H]1CCCN1C(=O)[C@H](CC(C)C)NC(=O)[C@H](Cc1ccc(O)cc1)NC(=O)[C@@H]1CCCN1C(=O)[C@@H]1CCCN1C(=O)[C@H](CCCCN)NC(=O)[C@H](CC(=O)O)NC(=O)[C@@H](N)C(C)C)C(=O)N[C@@H](Cc1ccc(O)cc1)C(=O)N[C@@H](CC(N)=O)C(=O)N[C@H](CCCNC(=N)N)C(N)=O | broth microdilution | DSM 6247 | 18 h, 37 °C, 25% MHB2 | 64 µg/mL |
| CC(C)CCCCCCCCC/C=C/C(=O)N[C@@H](CC(N)=O)C(=O)N[C@H]1CNC(=O)[C@@H]2CCCN2C(=O)[C@H](C(C)C)NC(=O)[C@@H](CN)NC(=O)CNC(=O)[C@H](CC(=O)O)NC(=O)CNC(=O)[C@H](CC(=O)O)NC(=O)[C@H](CC(=O)O)NC(=O)[C@H]2CCCCN2C1=O | broth microdilution | BR-VRSA strain 880, Mueller-Hinton broth, Mg2+ 10 mg/L | 16 h, with: Ca2+ 1.0 mM | 8 µg/mL |
| CCn1c(-c2ccc(OC)cc2)c(-c2ccc(OC)cc2)n(Cc2c(C)cc(C)cc2C)c1=[Se] | microbial growth, broth dilution | ATCC700699 VISA | 24 h, drug-resistant strain | > 40 µM |
| C#CCOc1ccc(CN[C@@]2(C)C[C@H](O[C@H]3[C@H](Oc4c5cc6cc4Oc4ccc(cc4Cl)[C@@H](O)[C@@H](NC(=O)[C@@H](CC(C)C)NC)C(=O)N[C@@H](CC(N)=O)C(=O)N[C@H]6C(=O)N[C@H]4C(=O)N[C@H](C(=O)N[C@H](C(=O)O)c6cc(O)cc(O)c6-c6cc4ccc6O)[C@H](O)c4ccc(c(Cl)c4)O5)O[C@H](CO)[C@@H](O)[C@@H]3O)O[C@@H](C)[C@H]2O)cc1OC | – | MRSA USA300 | – | 1 µM |
| CC[C@H](C)[C@H](NC(=O)[C@H](CC(C)C)NC(=O)[C@H](CCCNC(=N)N)NC(=O)CNC(=O)CNC(=O)[C@H](CCCCN)NC(=O)[C@H](CCCNC(=N)N)NC(=O)[C@H](CC(C)C)NC(=O)[C@H](CC(C)C)NC(=O)[C@H](CCCNC(=N)N)NC(=O)[C@@H](NC(=O)[C@H](CC(C)C)NC(=O)[C@@H](N)CO)[C@@H](C)O)C(=O)NCC(=O)N[C@@H](Cc1c[nH]c2ccccc12)C(=O)N[C@@H](CCCNC(=N)N)C(=O)N[C@@H](Cc1c[nH]c2ccccc12)C(=O)N[C@@H](CCC(=O)O)C(=O)N[C@@H](CCCCN)C(=O)N[C@H](C(=O)N[C@@H](CCCNC(=N)N)C(=O)N[C@@H](CC(N)=O)C(=O)N[C@@H](Cc1c[nH]c2ccccc12)C(=O)N[C@H](C(=O)N[C@@H](CCCNC(=N)N)C(=O)N[C@@H](CCCNC(=N)N)C(=O)N[C@H](C(=O)N[C@H](C(=O)N[C@@H](CCC(=O)O)C(=O)N[C@@H](CCCCN)C(=O)N[C@@H](CCCNC(=N)N)C(=O)N[C@@H](CCCCN)C(=O)N1CCC[C@H]1C(=O)N[C@@H](CC(N)=O)C(=O)N[C@@H](CCCCN)C(=O)O)[C@@H](C)CC)[C@@H](C)CC)[C@@H](C)CC)[C@@H](C)O | broth microdilution | ATCC 25923, Mueller-Hinton broth | 16 to 20 h, 37 °C | 4.39 µg/mL |
| CCCCCCCCCC(=O)NCCCC[C@H](NC(=O)[C@H](CCCCN)NC(=O)[C@@H]1CSCC(=O)N[C@@H](CCCCN)C(=O)N[C@@H](CC(C)C)C(=O)N[C@@H](CCCCN)C(=O)NCCCC[C@@H]2NC(=O)[C@H](CCCCN)NC(=O)[C@H](CC(C)C)NC(=O)[C@H](CCCCN)NC(=O)CSC[C@H](NC(=O)[C@H](CC(C)C)NC(=O)[C@H](CC(C)C)NC(=O)[C@H](CCCCN)NC2=O)C(=O)N[C@@H](CC(C)C)C(=O)N[C@@H](CC(C)C)C(=O)N[C@@H](CC(C)C)C(=O)N1)C(N)=O | broth microdilution | MRSA clinical isolate | – | 64 µg/mL |
| Oc1c(Br)cc(Br)c2nc3cc(Cl)ccc3nc12 | broth microdilution | MRSA BAA-44 | – | 0.08 µM |
| CN[C@H](CC(C)C)C(=O)N[C@H]1C(=O)N[C@@H](CC(N)=O)C(=O)N[C@H]2C(=O)N[C@H]3C(=O)N[C@H](C(=O)N[C@H](C(=O)NCC(N)=O)c4cc(O)cc(O)c4-c4cc3ccc4O)[C@H](O)c3ccc(c(Cl)c3)Oc3cc2cc(c3O[C@@H]2O[C@H](CO)[C@@H](O)[C@H](O)[C@H]2O[C@H]2C[C@](C)(NCc3ccc(OCc4cn(CC(=O)N[C@H](C(=O)N[C@@H](CCN)C(=O)N[C@H]5CCNC(=O)[C@H]([C@@H](C)O)NC(=O)[C@H](CCN)NC(=O)[C@H](CCN)NC(=O)[C@H](CC(C)C)NC(=O)[C@@H](CC(C)C)NC(=O)[C@H](CCN)NC5=O)[C@@H](C)O)nn4)c(OC)c3)[C@H](O)[C@H](C)O2)Oc2ccc(cc2Cl)[C@H]1O | – | MRSA USA300 | – | 0.093 µM |
| COc1ccc2ccc(O)c(/C=N/[C@H]3CCCC[C@H]3/N=C/c3cccc(C)c3O)c2c1 | bacterial growth, broth microdilution | vancomycin-intermediate | – | > 40 µM |
| Cc1ccc2nc(C)c(C(=O)NCc3ccccc3)n2c1 | microbial growth, broth dilution | – | – | > 128 µM |
